Measurements from different studies.
Target: Albumin (ALB, Homo sapiens, UniProt P02768)

`O=C([O-])CN1CCN(CC(=O)[O-])CCN(CC(=O)c2ccc(-c3ccc(OCC(=O)O)cc3)cc2)CCN(CC(=O)[O-])CC1.[Gd+3]` has a relaxivity increase of ~110% (25 °C, 60 MHz, with: HSA 0.6 mM; baseline: HEPES buffer).
For `Cc1cnc2c(c1)NC(=O)c1cccnc1N2C1CC1`, “Gibbs free energy of binding” read -4.66 kcal/mol (isothermal titration calorimetry; 298 K).
With `O=C(/C=C/c1ccc(O)c(O)c1)NCCCCCCCC[P+](c1ccccc1)(c1ccccc1)c1ccccc1` the binding constant was ~10 1.000e+04 M⁻¹ (fluorescence quenching).
For `Cc1ccc(C(C)C)cc1.[C-]#[O+].[C-]#[O+].[C-]#[O+].[Cl-].[Cl-].[Cl-].[Re+].[Ru+2].c1cnc(-c2ncccn2)nc1`, “number of binding sites” read 1.12 (tryptophan fluorescence quenching; concentration not given).
`CCCNCC(=O)O` — result for “random coil content”: 32.8% (circular dichroism; 0.6 mM).
For `Cc1c(C)c(C)[c-](C)c1C.[C-]#[O+].[C-]#[O+].[C-]#[O+].[Cl-].[Cl-].[Cl-].[Ir+3].[Re+].c1cnc(-c2ncccn2)nc1`, “number of binding sites” read 1.16 (tryptophan fluorescence quenching; concentration not given).
For `O=S([O-])c1ccccc1N=Cc1ccccc1[O-].[Cu+2].c1c[nH]cn1`, “number of binding sites” read 0.9 (fluorescence quenching; concentration not given).
The α-helix content of `CCCCCC(C)NCC(=O)O` (centres unmarked) is reported as 52.6% (circular dichroism; 0.6 mM).

Excerpt of the above:
`O=C([O-])CN1CCN(CC(=O)[O-])CCN(CC(=O)c2ccc(-c3ccc(OCC(=O)O)cc3)cc2)CCN(CC(=O)[O-])CC1.[Gd+3]` has a relaxivity increase of ~110% (25 °C, 60 MHz, with: HSA 0.6 mM; baseline: HEPES buffer).
